Published values collected from several papers.
Each line is one published result; not all experiments were run side by side.
Target: NUAK family SNF1-like kinase 2 (NUAK2, Homo sapiens, UniProt Q9H093)

SMILES | test | setting | how to read | quantity | result
Cc1ccc(-c2c(/C=C(\C#N)C(=O)NC(C)C)n(CCCO)c3ncnc(N)c23)cc1 | cell-free assay, competition with immobilised ligand | 1 µM | – | remaining binding | 92%
COc1cc(Nc2nccc(-c3cnn4nc(OC)ccc34)n2)cc(C(F)(F)F)c1 | binding, competition with immobilised ligand | 1 µM | – | remaining binding | 83%
C=CC(=O)N1Cc2nc(-c3cc(-c4cc(Cl)cnc4Cl)c(F)cc3F)n(-c3ccncn3)c2C1 | cell-free assay, inhibitor | 1 µM | – | inhibition | 3.1%
O=C(Cc1ccc(OCc2ccccc2)cc1)NC1(C(=O)O)CCN(C(=O)c2ccc(-c3cccc(Cl)c3)cc2)CC1 | enzyme activity, inhibitor | 10 µM | – | activity vs control | 119%
NC(=O)C[C@H]1CCc2sc3ncnc(O[C@H]4CC[C@H](N5CCOCC5)CC4)c3c21 | enzyme activity, inhibitor | 10 µM | – | inhibition | -2%
CNC(=O)C[C@H](Cc1ccc(C#N)cc1)NC(=O)c1cc(-c2ccc(CN[C@H](C)c3ccc(C)cc3)o2)ccc1Cl | enzyme activity, inhibitor | 1 µM | – | activity vs control | 97%
C=CC(=O)N1CCc2ccc(-n3c(=O)ccc4cnc5ccc(-c6cnn(C)c6)cc5c43)cc21 | KINOMEscan | 1 µM | relative to: DMSO control | remaining binding | 68%
CC(C)=CC1OC(C)(C)C2C=C3C(=O)C(Cl)=CC(O)C3C3C(O)C4OC4C(=O)C132 (stereo not drawn) | cell-free assay, competition with immobilised ligand | 10 µM | – | remaining binding | 3.3%
C=CC(=O)N1CCCC(n2c(=O)c3ncccc3n(Cc3ccc(Oc4ccccc4)cc3)c2=O)C1 (stereo not drawn) | cell-free assay, competition with immobilised ligand | 1 µM | – | remaining binding | 82%
Nc1ncc2c(n1)-c1c([nH]c3ccc(C4=CCOCC4)cc13)CCC2 | binding, competition with immobilised ligand | 1 µM | – | remaining binding | 100%
C[C@]1(O)CCCN(c2nc(Nc3ccc(S(=O)(=O)N[C@H]4CC[C@H](CN5CCN(c6ccc(C7CCC(=O)NC7=O)cc6F)CC5)CC4)cc3)ncc2C(F)(F)F)C1 (stereo partly drawn) | binding, competition with immobilised ligand | 1 µM | – | remaining binding | 5.6%
COc1ccc(NC(=O)Nc2ccc3c(c2)C(=O)N(C(C)CO)CC(C)C(CN(C)Cc2ccc4c(c2)OCO4)O3)cc1 (stereo not drawn) | binding, competition with immobilised ligand | 10 µM | – | remaining binding | 72%
C=C1CCCCCCCCCC(CO)C1=O (stereo not drawn) | cell-free assay, competition with immobilised ligand | 10 µM | – | remaining binding | 82%
CN1CCN(Cc2ccc(NC(=O)c3cccc(C#Cc4cnc(N)c5ncccc45)c3)cc2C(F)(F)F)CC1 | cell-free assay, competition with immobilised ligand | 0.5 µM | – | remaining binding | 73%
COc1c(Cl)cccc1Nc1c(-c2ccncc2C#C[C@@]2(C)CCCN2C(=O)/C=C/CN(C)C)[nH]c2c1C(=O)NCC2 | binding, competition with immobilised ligand | 3 µM | – | remaining binding | 87%

Excerpt of the above:
SMILES | test | setting | how to read | quantity | result
COc1c(Cl)cccc1Nc1c(-c2ccncc2C#C[C@@]2(C)CCCN2C(=O)/C=C/CN(C)C)[nH]c2c1C(=O)NCC2 | binding, competition with immobilised ligand | 3 µM | – | remaining binding | 87%
